# Assay results pooled from the literature.
# Protocols differ between the studies behind these lines. “And” joins repeats or separate records; there may be more than shown. ± marks the error that the study gave.
Compound,organism,assay,system,conditions,scale,quantity,value
COc1cccc2c(-c3ccc(O)c4c3CC(C)(C)N=C4)ccc(OC(C)C)c12,Plasmodium falciparum,"asexual parasite proliferation, SYBR Green I fluorescence",HB3,,,IC50,414.8 ± 3.7 nM
O=C(O)c1ccc(O)cc1,Streptomyces coelicolor,RT-PCR,,"2 mM, 1 h",,pcaH mRNA level,increased
CN(Cc1ccc(C2(C(F)(F)F)CCC2)cc1)Cc1cccc2ccccc12,Trichophyton mentagrophytes,"microbial growth, disc diffusion",ATCC18748,"0.512 µg/mL, 72 h",,inhibition zone,49.2 mm
Cc1ccc(-c2nc(N)c3c(Nc4ccc(F)cc4)n[nH]c3n2)cc1F,coxsackievirus B3,viral cytopathic effect,HeLa,,,IC50,6530 nM
COC1C=COC2(C)Oc3c(C)c(O)c4c(c3C2=O)C2=NC3(CCN(CC(C)C)CC3)NC2=C(NC(=O)C(C)=CC=CC(C)C(O)C(C)C(O)C(C)C(OC(=O)Nc2cccnn2)C1C)C4=O (stereo not shown),Mycobacteroides abscessus,bacterial growth,subsp. abscessus M9 clinical isolate,,,IC90,103 nM
O=c1[nH]cc(C(c2cccc(F)c2)c2c[nH]c(=O)[nH]c2=O)c(=O)[nH]1,Human immunodeficiency virus 1,"viral replication, inhibitor, ELISA",,1 µg/mL,,inhibition,23%
CC(C)(C)NCC(SS(=O)(=O)O)c1ccccc1 (stereo not shown),Schistosoma mansoni,perfusion day 52,infected Swiss Webster mice,"600 mg/kg single dose, 1248 h, dosed day 7 post-infection",reference: vehicle control,liver weight decrease,14%
FC(F)(F)c1cccc(CNc2nc(NC3CCN(Cc4ccccc4)CC3)c3nc[nH]c3n2)c1,Cryptococcus neoformans,"RNA-seq, item: CNAG_05329",wild type,"48 µg/mL, 3 h",reference: untreated wild type,log2 fold change,-0.217
Nc1nc(-c2ccccc2)nc2[nH]nc(Nc3ccc([N+](=O)[O-])cc3)c12,coxsackievirus B3,viral cytopathic effect,HeLa,,,IC50,6000 nM
N#Cc1cccc(C(c2c[nH]c(=O)[nH]c2=O)c2c[nH]c(=O)[nH]c2=O)c1,Human immunodeficiency virus 1,"viral replication, inhibitor, ELISA",,1 µg/mL,,inhibition,10%
COc1cc(O)c(-c2cc(-c3cc(-c4c(O)cc(OC)c5c4C[C@@H](C)N[C@@H]5C)c4cc(C)cc(OC)c4c3O)c(O)c3c(OC)cc(C)cc23)c2c1[C@@H](C)N[C@H](C)C2,Plasmodium falciparum,"asexual parasite proliferation, SYBR Green I fluorescence",7G8,,,IC50,70 ± 14 nM
CC[C@H](C)[C@H](NC(=O)[C@H](Cc1ccc(O)cc1)NC(=O)[C@H](CCC(=O)O)NC(=O)CNC(=O)[C@H](CCC(=O)O)NC(=O)[C@H](CCCCN)NC(=O)[C@H](CCCCN)NC(=O)[C@H](CC(=O)O)NC(=O)[C@H](Cc1c[nH]cn1)NC(=O)[C@H](Cc1c[nH]cn1)NC(=O)[C@H](Cc1c[nH]cn1)NC(=O)[C@H](Cc1c[nH]cn1)NC(=O)[C@H](Cc1c[nH]cn1)NC(=O)[C@H](Cc1c[nH]cn1)NC(=O)[C@H](Cc1c[nH]cn1)NC(=O)[C@H](Cc1c[nH]cn1)NC(=O)[C@H](Cc1c[nH]cn1)NC(=O)[C@@H](N)Cc1c[nH]cn1)C(=O)N[C@@H](CCCCN)C(=O)N[C@@H](CC(C)C)C(=O)N[C@@H](CCCCN)C(=O)N[C@H](C(=O)N[C@H](C(=O)NCC(=O)N[C@@H](CCC(N)=O)C(=O)N[C@@H](CC(=O)O)C(=O)N[C@@H](CO)C(=O)N[C@@H](CO)C(=O)N[C@@H](CCC(=O)O)C(=O)N[C@H](C(=O)N[C@@H](Cc1c[nH]cn1)C(=O)N[C@@H](Cc1ccccc1)C(=O)N[C@@H](CCCCN)C(=O)N[C@H](C(=O)N[C@@H](CCCCN)C(=O)N[C@@H](CCSC)C(=O)N[C@H](C(=O)N[C@H](C(=O)N[C@@H](Cc1c[nH]cn1)C(=O)N[C@@H](CC(C)C)C(=O)N[C@@H](CCCCN)C(=O)N[C@@H](CCCCN)C(=O)N[C@@H](CC(C)C)C(=O)N[C@@H](CCCCN)C(=O)N[C@@H](CCC(=O)O)C(=O)N[C@@H](CO)C(=O)N[C@@H](Cc1ccc(O)cc1)C(=O)N[C@@H](CS)C(=O)N[C@@H](CCC(N)=O)C(=O)N[C@@H](CCCNC(=N)N)C(=O)N[C@@H](CCC(N)=O)C(=O)O)[C@@H](C)O)[C@@H](C)O)C(C)C)[C@@H](C)CC)[C@@H](C)CC)C(C)C,Drosophila melanogaster,immunoblot,head,"60 µM, normalised to β-actin, unit not given",reference: untreated,TH level mean difference,-0.473
Nc1nc(-c2ccccc2)nc2[nH]nc(Nc3cccnc3)c12,coxsackievirus B3,viral cytopathic effect,HeLa,,,IC50,2600 nM
"COc1cc(C)c(-c2ccc(O)c3c2C[C@@H](C)N[C@@H]3C)c2cccc(O)c12 (single isomer, unassigned)",Plasmodium falciparum,"asexual parasite proliferation, SYBR Green I fluorescence",Dd2,,,IC50,248 ± 46 nM
CNc1nc(-c2ccccc2)nc2[nH]nc(Nc3ccc(F)cc3)c12,coxsackievirus B3,viral cytopathic effect,HeLa,,,IC50,3100 nM
O=c1[nH]cc(C(c2ccccc2Cl)c2c[nH]c(=O)[nH]c2=O)c(=O)[nH]1,Human immunodeficiency virus 1,"viral replication, inhibitor, ELISA",,1 µg/mL,,inhibition,20%
Nc1nc(-c2ccccc2)nc2[nH]nc(Nc3ccccc3F)c12,rhinovirus B42,viral cytopathic effect,HeLa,,,IC50,10 nM
COc1cc(C)c(-c2ccc3c(c2O)[C@@H](C)N[C@H](C)C3)c2ccc(-c3c(C)c(-c4ccc5c(c4O)[C@@H](C)N[C@H](C)C5)c4cccc(OC)c4c3O)c(O)c12,Plasmodium falciparum,"asexual parasite proliferation, SYBR Green I fluorescence","clinical isolate SB_05, Mozambique",,,IC50,95 ± 17 nM
CC(C)c1ccc(Nc2n[nH]c3nc(-c4ccccc4)nc(N)c23)cc1,rhinovirus B42,viral cytopathic effect,HeLa,,,IC50,30 nM
C[C@H](O)CC(=O)OCCc1ccc(O)cc1,Zika virus,"viral replication, CCK-8",Vero C1008,"10 µM, 96 h",,inhibition,0%
C#CCNc1c2c([nH]c(=O)c1C(=O)OCC)CCC2,Human immunodeficiency virus 1,"viral replication, inhibitor",IIIB,72 h,,EC50,> 100000 nM
CCCOC(=O)N1c2cc(CNC)ccc2[C@H](NC(=O)C(=O)Nc2ccc(Cl)c(F)c2)[C@H]1CNC(=N)N,HIV-1,"pseudovirus infection, Env pseudovirus neutralisation","TZM-bl, clade B",,,IC80,107 nM
Nc1nc(-c2ccccc2)nc2[nH]nc(Nc3c(F)cccc3F)c12,coxsackievirus B3,viral cytopathic effect,HeLa,,,IC50,6650 nM
C=C(NC(=O)c1csc(-c2nc3c(cc2O)-c2nc(cs2)C(=O)NC(C(C)O)C(=O)NC(=C(C)OC)c2nc(cs2)C(=O)NC2c4nc(cs4)C(=O)NC(COC(=O)c4c5c6c(cccc6n4O)COC(=O)C(OC4CC(C)(O)C(N(C)C)C(C)O4)C2OC5)c2nc-3cs2)n1)C(N)=O (stereo not shown),Streptococcus pyogenes,broth microdilution,,,,MBC,0.125 µg/mL
Cc1ncsc1-c1ccc(CNC(=O)[C@@H]2C[C@@H](O)CN2C(=O)[C@@H](NC(=O)CN2CCN(C3CN(CCNC(=O)C[C@@H]4N=C(c5ccc(Cl)cc5)c5c(sc(C)c5C)-n5c(C)nnc54)C3)CC2)C(C)(C)C)cc1,Spodoptera frugiperda,"degrader, targeted LC-MS, item: BRD3",Sf9,0.1 µM,,protein level,12.2% and 13.5% and 11% and 12.3%
c1ccc(CN2CCOCCOCCN(CCCCCCCCCCCCN3CCOCCOCCN(CCCCCCCCCCCCN4CCOCCOCCN(Cc5ccccc5)CCOCCOCC4)CCOCCOCC3)CCOCCOCC2)cc1,Klebsiella pneumoniae,,ATCC BAA-2146,"quarter MIC, added: ciprofloxacin",,FIC index,0.67
O=c1[nH]cc(C(c2ccc(Cl)cc2)c2c[nH]c(=O)[nH]c2=O)c(=O)[nH]1,Human immunodeficiency virus 1,"viral replication, inhibitor, ELISA",,1 µg/mL,,inhibition,69%
C=C[C@]1(C)C[C@@H](OC(=O)CSc2ccc(NC(=O)c3ccco3)cc2)[C@]2(C)[C@H](C)CC[C@]3(CCC(=O)[C@H]32)[C@@H](C)[C@@H]1O,Mycoplasma gallisepticum,,infected chickens,"intramuscular, 5 to 50 mg/kg",,mycoplasma load reduction,< 2 log10 CFU/mL
Cc1cccc2c1N(C(=O)n1ccnn1)CC2,Striga hermonthica,,seeds,"100 µM, added: 10 nM (±)-GR24",,germination rate,60.5% and 77.3% and 96.8% and 64.3% and 66.7% and 76.1% and 91.2%
CC(CO)C(=O)OCC(C)C(=O)OCCc1ccc(O)cc1 (stereo not shown),Zika virus,"viral replication, CCK-8",Vero C1008,"10 µM, 96 h",,inhibition,0%
COC1C=COC2(C)Oc3c(C)c(O)c4c(c3C2=O)C2=NC3(CCN(CC(C)C)CC3)NC2=C(NC(=O)C(C)=CC=CC(C)C(O)C(C)C(O)C(C)C(OC(=O)c2cccnc2)C1C)C4=O (stereo not shown),Mycobacteroides abscessus,,"ATCC 19977, caseum surrogate","5 d, non-replicating",,MBC,2 µM
Nc1nc(-c2ccccc2)nc2[nH]nc(Nc3ccc(OC(F)(F)F)cc3)c12,coxsackievirus B3,viral cytopathic effect,HeLa,,,IC50,13700 nM
N#Cc1ccc(C(c2c[nH]c(=O)[nH]c2=O)c2c[nH]c(=O)[nH]c2=O)cc1,Human immunodeficiency virus 1,"viral replication, inhibitor, ELISA",,1 µg/mL,,inhibition,12%
COc1cc(O)c(-c2cc(-c3cc(-c4c(O)cc5c(c4OC)[C@H](C)N[C@H](C)C5)c4cc(C)cc(OC)c4c3O)c(O)c3c(OC)cc(C)cc23)c2c1[C@H](C)N[C@H](C)C2,Plasmodium falciparum,"asexual parasite proliferation, SYBR Green I fluorescence",Dd2,,,IC50,70.1 ± 1.3 nM

# For quick reference, copied from above:
Compound,organism,assay,system,conditions,scale,quantity,value
CCCOC(=O)N1c2cc(CNC)ccc2[C@H](NC(=O)C(=O)Nc2ccc(Cl)c(F)c2)[C@H]1CNC(=N)N,HIV-1,"pseudovirus infection, Env pseudovirus neutralisation","TZM-bl, clade B",,,IC80,107 nM
COc1cc(O)c(-c2cc(-c3cc(-c4c(O)cc(OC)c5c4C[C@@H](C)N[C@@H]5C)c4cc(C)cc(OC)c4c3O)c(O)c3c(OC)cc(C)cc23)c2c1[C@@H](C)N[C@H](C)C2,Plasmodium falciparum,"asexual parasite proliferation, SYBR Green I fluorescence",7G8,,,IC50,70 ± 14 nM
